Results collected from several papers.
Each line is one published result; not all experiments were run side by side. Numbers after ± are the reported error.

For `[Cl][Pt-]1([Cl])[S]C(Nc2ccccc2)=N[N+]1=Cc1ccc(-c2ccccc2)s1`, the IC50 was 65 µM (CRFK; cell growth or viability).
With `S=c1n(-c2ccccc2)c2c3ccccc3nc3[n+]2[n]1[Ir-3]12([S]3)([c]3cccc4ccc5ccc[n+]1c5c34)[c]1cccc3ccc4ccc[n+]2c4c13` the IC50 was over 50 µM (MRC9; cell viability, MTT; dark).
`CN1CCCNC(=O)c2cccc(c2)C(=O)NCCCN(C)CCCNc2cccc3c2C(=O)c2cccc(c2C3=O)NCCC1` gave an IC50 of 0.4 µM (Ca9-22; cell growth or viability, CCK-8; 48 h).
The IC50 of `Cc1c(C)c(C)[c-](C)c1C.Cc1ccc[c-]c1-c1ccccn1.[Cl-].[Ir+3]` is reported as 1.18 ± 0.08 µM (A2780 cells; cell growth, SRB; 24 h exposure, 72 h recovery).
With `Cc1nnc2c3c(-c4ccc5ccccc5n4)cc(-c4ccccc4)nc3n3c(C)nnc3n12` the IC50 was 19.8 µM (RPE-1; cell growth or viability, MTT; 48 h).
`C=CC(OC(C)=O)c1cc(OC)cc(OC)c1` (stereo not drawn) has an IC50 of over 50 µM (RT-112; MTT; 24 h).
With `S=c1n(-c2ccccc2)c2c3ccccc3nc3[n+]2[n]1[Ir-3]12([S]3)([c]3ccc4ccccc4c3-c3sc4ccccc4[n+]31)[c]1ccc3ccccc3c1-c1sc3ccccc3[n+]12` the IC50 was over 25 µM (MRC9; cell viability, MTT; dark).
`O=C1c2ccc3c4ccc5c6c(ccc(c7ccc(c2c37)C(=O)N1CCN1CCCCC1)c64)C(=O)N(CCN1CCCCC1)C5=O` has an IC50 of 318 µM (human PBMC; cell growth or viability, SRB; 72 h).
`CC1(C)CCC(CN2CCN(c3ccc(C(=O)NS(=O)(=O)c4ccc(NCC5COCCO5)c([N+](=O)[O-])c4)c(N4CCCOc5nc6[nH]ccc6cc54)c3)CC2)=C(c2ccc(Cl)cc2)C1` (stereo not drawn) has an IC50 of 0.0295 µM (OSU-CLL BCL2 knockout; cell viability, CellTiter-Glo; 72 h).
`C=CC(=O)N1CC=C(c2c(-c3ccc(Oc4cccc(C)n4)cc3)c3c(N)ncnc3n2C)C1` has an IC50 of 0.005 µM (SNU-16; cell growth or viability, ATP luminescence; 96 h).
`CC1(C)Cc2c(-c3ccccc3)c(-c3ccc(Cl)cc3)c(CC(=O)NCC(=O)O)n2C1` has an IC50 of over 100 µM (mouse peritoneal macrophages; PGI2 production; added: LPS).
For `O=C(CCc1ccc(CNC(C(=O)OC2CCCC2)C2CCCCC2)cn1)NO` (stereo not drawn), the IC50 was 0.019 µM (human CD14+ monocytes; M-CSF differentiation; 20 h then washout, added: M-CSF).
`CC1CC(=O)NN=C1c1ccc(NC(=O)N2Cc3ccncc3C2)cc1` (stereo not drawn) gave an IC50 of 0.134 µM (A549-C4.4a; cell viability, CellTiter-Glo).
`COC(=O)[C@@]1(C)C=C(C(=O)NCc2cccc(C(=O)Nc3ccc(Nc4nccc(-c5cccnc5)n4)c(C)c3)c2)C(=O)CC1` has an IC50 of 4.32 ± 1.38 µM (SH-SY5Y MKK7-ACT; c-Jun phosphorylation, inhibitor, western blot, measured: phospho-c-Jun Ser73; 6 h, added: doxycycline).
`CC(C)Cc1ccc(C(C)C(=O)[O][Pt]([NH2])([NH2])([Cl])([Cl])[O]C(=O)CCCc2ccccc2)cc1` (stereo not drawn) gave an IC50 of 1.65 ± 0.11 µM (C13 cisplatin-resistant; cytotoxicity, MTT; 72 h).
For `CCOC(=O)c1ccc2c(c1)n(CC)[c]([Au-][Cl])[n+]2CC`, the IC50 was 4 ± 2.6 µM (RC-124 kidney epithelial; cell proliferation, crystal violet staining; 96 h).
`O=Cc1c2cc(Cl)ccc2n2c1c(-c1ccccc1)c(SC(F)(F)F)c1ccccc12` gave an IC50 of over 100 µM (LS174T; cell growth or viability, MTT; 72 h).
For `CCn1nc2c(c1Nc1nc(-c3ccc(-n4cnc(C)c4)c(OC)n3)cs1)CCCC2`, the IC50 was 0.047 ± 0.005 µM (CHO APPwt/PS1 M146L; Aβ42 production).
With `Cc1c(C(=O)/C=C/c2cccs2)nnn1-c1c(Cl)cc(Cl)cc1Cl` the IC50 was 32.5 µM (THLE-2; cell growth or viability, MTT).
For `Cn1cc(-c2cc(N3CCCCS3(=O)=O)ccc2N[C@H]2CC[C@H](C)CC2)c2cc[nH]c2c1=O` (stereo in doubt), the IC50 was 0.00039 µM (Light2 cells expressing SMO^WT; GLI-luciferase reporter, inhibitor, measured: SMO^WT).
`CC(C)c1cccc(C(C)C)c1N1CCN(c2c(C(C)C)cccc2C(C)C)C1=[Se].[Cl][Ag]` has an IC50 of 1.2 ± 0.4 µM (LoVo MDR; MTT; 72 h).
`CC(=O)[O-].O.O.O.O.[Co+2].[O-]c1ccc(Br)cc1C=NCCN1CCOCC1` gave an IC50 of 58.2 µg/mL (NHDF normal fibroblasts; cell viability, MTT; 72 h).
`Cc1c(C)c(C)[c-](C)c1C.O=[N+]([O-])c1c[c-]c(-c2ccccn2)cc1.[Cl-].[Ir+3]` has an IC50 of 24.7 ± 2.3 µM (A2780 cells; cell growth, SRB; 24 h exposure, 72 h recovery).
`[Cl][Au-][c]1n(-c2c(C(c3ccccc3)c3ccccc3)cc(C(c3ccccc3)c3ccccc3)cc2C(c2ccccc2)c2ccccc2)c2c([n+]1-c1c(C(c3ccccc3)c3ccccc3)cc(C(c3ccccc3)c3ccccc3)cc1C(c1ccccc1)c1ccccc1)-c1cccc3cccc-2c13` gave an IC50 of over 50 µM (C13 cisplatin-resistant; cell viability, MTT; 72 h).
The IC50 of `CC(=O)c1cnc(N)nc1N1CC[C@H]1c1nn2ccc(Cl)c2c(=O)n1-c1ccccc1` is reported as 0.13 µM (human CD4 T cells; Treg differentiation, measured: IL-10).
For `Cc1cc(C=O)cc(C)c1Oc1cc(Nc2ccc(C#N)cc2)nc2cnccc12`, the IC50 was 9.1 ± 2 µM (MOLT-3; 48 h).
`CCCCOc1nc(N)c2[nH]c(=O)n(CCCN(CCCN3CCOCC3)Cc3cccc(CC(=O)OC)c3)c2n1` has an IC50 of 0.001 µM (human PBMC; IL-5 release; 2 d, added: PHA).
`[Cl][Au-]1([Cl])[N+](=P(c2ccccc2)(c2ccccc2)C2C=CC=C2)Cc2cccc[n+]21.[Cl][Au-]1([Cl])[N+](=P(c2ccccc2)(c2ccccc2)C2C=CC=C2)Cc2cccc[n+]21.[Fe+2].[O-][Cl+3]([O-])([O-])[O-].[O-][Cl+3]([O-])([O-])[O-]` gave an IC50 of 2.4 ± 0.5 µM (A2780cisR (cisplatin-resistant); cell growth, MTT; 74 h, 1% DMSO).
`O=[N+]([O-])c1ccc(NC2=N[N+](=Cc3cccs3)[Pd-]([Cl])([Cl])[S]2)cc1` has an IC50 of 152 µM (CEM human lymphocytes; cell proliferation).
For `CCCCCCCCCCCCN(CCCCCCCCCCCC)C1=[S+][Au-2]2([S]1)[c]1ccccc1-c1cccc[n+]12.F[P-](F)(F)(F)(F)F` (stereo not drawn), the IC50 was 17.8 µM (BT-333 glioblastoma; MTT; 72 h).
For `C=C[CH2][Pd-]([Cl])[Cl].Cc1cc(C)c(-n2c[n+](-c3c(C)cc(C)cc3C)c3c2-c2cccc4cccc-3c24)c(C)c1`, the IC50 was 1.8 ± 0.4 µM (C13 cisplatin-resistant; cell viability, MTT; 72 h).
For `C[C@@H]1NC(=O)[C@@H](CCC(=O)O)NC(=O)[C@H](Cc2ccccc2)NC(=O)[C@H](CCC(=O)O)NC(=O)[C@H](CC(N)=O)NC1=O`, the IC50 was 54 to 430 µM (WM-115; cell adhesion, inhibitor; 1 h, added: immobilized CagL RAD mutant).
`CC(=O)Oc1ccccc1C(=O)[O][Pt]([NH2])([NH2])([Cl])([Cl])[O]C(=O)C(Cl)Cl` gave an IC50 of 1.66 ± 0.09 µM (C13 cisplatin-resistant; cytotoxicity, MTT; 72 h).
The IC50 of `C=CCc1ccc(OC(C)=O)c(OC)c1` is reported as over 50 µM (RT-112; MTT; 24 h).
For `C=C1C(=O)[C@@]23CC[C@@H]4C(C)(C)CCC[C@@]4(CO)[C@@H]2[C@@H](O)C[C@@H]1C3`, the IC50 was over 20 µM (786-0; cell growth or viability, MTT).
The IC50 of `O=[N+]([O-])c1ccc(/N=N/c2ccc(O)c(O)c2)cc1` is reported as 4.3 µM (HEK293T; cell growth, PrestoBlue; 72 h).
For `[Cl][Pt-]1([Cl])[S]C(Nc2ccccc2)=N[N+]1=Cc1cccs1`, the IC50 was 6.7 µM (CRFK; cell growth or viability).
For `CC1=C2[O][Ru-]([Cl])[O+]=C2C=CN1CCCN1C=CC2=[O+][Ru-]([Cl])[O]C2=C1C.Cc1ccc(C(C)C)cc1.Cc1ccc(C(C)C)cc1`, the IC50 was 32.2 µM (SISO-oxo oxoplatin-resistant; crystal violet; 96 h).
With `CCCCCCCCCCCCCCCCCC(=O)N[C@@H](CCCN)C(=O)N[C@@H](CCCN)C(=O)N[C@@H](CCCN)C(=O)N[C@@H](CCCN)C(=O)N[C@@H](CCCN)C(N)=O` the IC50 was 18.7 µg/mL (HCEC; cytotoxicity).
`COc1cc2c(cc1C(C)(C)O)CCC1C(C)(C)c3nc(C)ncc3C[C@]21C` (mixture of isomers) gave an IC50 of 113 µM (HAF; cell growth or viability, SRB; 24 h).
With `COc1ccc(/C=C/C2=[N+]3C(=C(C=O)c4c(C)c(Br)c(/C=C/c5ccc(OC)cc5)n4[B-]3(F)F)C(C)=C2Br)cc1` the IC50 was 2.2 ± 0.1 µM (RPE-1; phototoxicity, resazurin; added: 645 nm light, 9.00 J/cm2).
`CCCCCCCCC=CCCCCCCCC(=O)OCC1OC(n2ccc(N)nc2=O)C(F)(F)C1O` (stereo not drawn) has an IC50 of 0.0053 ± 0.0037 µM (THX; cell growth; added: dipyridamole 4 µg/mL).
The IC50 of `Cc1c(C)n(-c2c(C(C)C)cccc2C(C)C)c(=[Se])n1-c1c(C(C)C)cccc1C(C)C.[Cl][Au]` is reported as 1.9 ± 0.1 µM (LoVo MDR; MTT; 72 h).
`Cc1cc(C=O)cc(C)c1Oc1cc(Nc2ccc(C#N)cc2)nc2ccncc12` has an IC50 of 17.6 ± 7.8 µM (MOLT-3; 48 h).
For `O=C1CCC(N2C(=O)c3ccc(N4CCC(C(=O)N5CCC(CCN6CCC(CNC(=O)c7cccc(-c8noc(C(F)(F)F)n8)c7)(c7nc(-c8ccccc8)cs7)CC6)CC5)CC4)cc3C2=O)C(=O)N1` (stereo not drawn), the IC50 was 1 µM (DHL6; cell proliferation, CCK-8; 120 h).
`NS(=O)(=O)c1ccc(NC(=O)NN[C@@H]2O[C@H](CO)[C@H](O)[C@H](O)[C@H]2O)cc1` has an IC50 of over 100 µM (HCEC; cell growth or viability, MTT; 96 h).
`Cc1c(-c2c3c(N)n[nH]c(=O)c3nn2-c2ccccc2)oc2cc(F)ccc12` gave an IC50 of over 1 µM (SNU-16; cell growth or viability).
`CC1=CC(C)=[N+]2C1=C(CO)c1c(C)cc(C)n1[B-]2(F)F` has an IC50 of over 100 µM (RPE-1; cell growth or viability, resazurin; dark).
`O=C1NCC(Cc2ccccc2)N(CC2CCCN2CC(CC2CCCCC2)N2CC(Cc3ccc(O)cc3)N(CCc3ccccc3)C(=O)C2=O)C1=O` (stereo not drawn) has an IC50 of over 100 µM (U87; viability; 72 h).
With `COc1ccc(/C=C/C2=[N+]3C(=C(CO)c4c(C)cc(/C=C/c5ccc(OC)cc5)n4[B-]3(C)C)C(C)=C2)cc1` the IC50 was 1.4 ± 0.6 µM (RPE-1; phototoxicity, resazurin; added: 645 nm light, 9.00 J/cm2).
The IC50 of `C=C(C)C(=O)Nc1ccc(-c2c(-c3ccc(Oc4nccc(C)n4)cc3)c3c(N)ncnc3n2C)cc1` is reported as 0.006 µM (SNU-16; cell growth or viability, ATP luminescence; 96 h).

A few entries again:
`Cc1cc(C=O)cc(C)c1Oc1cc(Nc2ccc(C#N)cc2)nc2ccncc12` has an IC50 of 17.6 ± 7.8 µM (MOLT-3; 48 h).
`CN1CCCNC(=O)c2cccc(c2)C(=O)NCCCN(C)CCCNc2cccc3c2C(=O)c2cccc(c2C3=O)NCCC1` gave an IC50 of 0.4 µM (Ca9-22; cell growth or viability, CCK-8; 48 h).
For `CCn1nc2c(c1Nc1nc(-c3ccc(-n4cnc(C)c4)c(OC)n3)cs1)CCCC2`, the IC50 was 0.047 ± 0.005 µM (CHO APPwt/PS1 M146L; Aβ42 production).
`NS(=O)(=O)c1ccc(NC(=O)NN[C@@H]2O[C@H](CO)[C@H](O)[C@H](O)[C@H]2O)cc1` has an IC50 of over 100 µM (HCEC; cell growth or viability, MTT; 96 h).
`C=CC(OC(C)=O)c1cc(OC)cc(OC)c1` (stereo not drawn) has an IC50 of over 50 µM (RT-112; MTT; 24 h).
`COC(=O)[C@@]1(C)C=C(C(=O)NCc2cccc(C(=O)Nc3ccc(Nc4nccc(-c5cccnc5)n4)c(C)c3)c2)C(=O)CC1` has an IC50 of 4.32 ± 1.38 µM (SH-SY5Y MKK7-ACT; c-Jun phosphorylation, inhibitor, western blot, measured: phospho-c-Jun Ser73; 6 h, added: doxycycline).
